Published values collected from several papers.
Numbered parts are unrelated; each lists some results of a single study. ± gives the spread as reported.

Study 1
Organism: SARS-CoV-2 Wuhan spike VSV pseudovirus
Effect on: pseudovirus entry
Concentration: concentration not given
SMILES	inhibition [%]
CC(C)c1ccc(CN2CCCC3(CCN(C(=O)c4ccc5[nH]cnc5c4)C3)C2)cc1 (stereo not drawn)	38
Nc1cccc(S(=O)(=O)c2cccc(N)c2)c1	41
C[C@@H]1CC(=O)NN=C1c1ccc(NN=C(C#N)C#N)cc1	40
COc1ccc2c(c1)CC(C(=O)N1CCC(CCC(=O)Nc3ccccc3)CC1)CO2 (stereo not drawn)	41
CCCc1cnc(-c2cc(F)ccc2C)nc1	45
O=C(O)c1ccc2c(c1)C(=O)N(c1ccc(N3C(=O)c4ccc(C(=O)O)cc4C3=O)c(Cl)c1)C2=O	42
O=C(Cn1ncc(Cl)c(Cl)c1=O)NC(=O)NCc1ccco1	40
Cc1ccc(C(=O)N(CCCN)[C@@H](c2oc3cc(Cl)ccc3c(=O)c2Cc2ccccc2)C(C)C)cc1	43
COc1ccccc1N1CCN(C(=O)c2nc(S(=O)(=O)Cc3ccccc3)ncc2Cl)CC1	47
Cc1ccc(CS(=O)(=O)c2ncc(Cl)c(C(=O)N3CCN(C)CC3)n2)cc1	41
COCC1CCCCN1c1nc2nonc2nc1NCc1cccs1 (stereo not drawn)	44
COc1cc(NC(=O)CCC2CCCN(C3CCSCC3)C2)cc(OC)c1 (stereo not drawn)	52
CCC(CC)n1ncc(C)c1NC(=O)c1cc(Cl)ccc1C	40
CCn1nc(C)c(CCN(C)S(=O)(=O)c2ccc3c(c2)CC(C)N3C(C)=O)c1C (stereo not drawn)	42
CCC1Oc2ccc(S(=O)(=O)N3CCN(C(=O)c4ccc(C#N)cc4F)CC3)cc2NC1=O (stereo not drawn)	42

Other studies, line by line
rep papain-like protease: Replicase polyprotein 1ab, papain-like protease (rep, Severe acute respiratory syndrome coronavirus 2, UniProt P0DTD1)
rep nsp14: Replicase polyprotein 1ab, nsp14 (rep, Severe acute respiratory syndrome coronavirus 2, UniProt P0DTD1)
rep nsp12 RdRp: Replicase polyprotein 1ab, nsp12 RdRp (rep, Severe acute respiratory syndrome coronavirus 2, UniProt P0DTD1)
Molecule	target or system	test	test system	setting	scale	endpoint	value
CCC(CC)COC(=O)[C@H](C)N[P@](=O)(OC[C@H]1O[C@@](C#N)(c2ccc3c(N)ncnn23)[C@H](O)[C@@H]1O)Oc1ccccc1	SARS-CoV-2	viral replication	Vero, Gamma			EC50	0.1 ± 0.2 µM
Cl[TeH]1(Cl)(Cl)OCCO1	rep papain-like protease			concentration not given, C111S mutant	baseline: positive control	activity	6.81%
O=C(NC1CCN(c2ncnc3[nH]cnc23)CC1)c1cccc(S(=O)(=O)N2CCCC2)c1	rep nsp14	NSP14 enzyme activity, inhibitor		0.04883 µM		inhibition	2.15%
COc1nc(N)nc2c1ncn2[C@@H]1O[C@H](CO)[C@@H](O)[C@@H]1O	SARS-CoV-2	infectious virus yield	Vero C1008, Omicron BA.1	48 h		EC50	1.67 ± 0.08 µM
C[C@@H]1O[C@@H](OC[C@H]2O[C@@H](OCCc3ccc(O)c(O)c3)[C@H](O)[C@@H](O)[C@@H]2OC(=O)/C=C/c2ccc(O)c(O)c2)[C@H](O)[C@H](O)[C@H]1O	rep nsp12 RdRp	binding, biolayer interferometry		50 µM		BLI response	0.03 nm
SLVAVTAHQSTIEEQAKTFLDKFN	SARS-CoV-2 spike RBD	peptide spot array	peptide	concentration not given	baseline: wild-type ACE2 peptide	relative binding	3.73
N#C[C@@]1(n2ccc(N)nc2=O)O[C@H](CO)[C@@H](O)[C@H]1O	SARS-CoV-2	viral replication	Calu-3, Gamma			EC90	4.6 ± 0.2 µM
Cc1ccc(-n2[nH]c(C)c(N=Nc3cccc(-c4cccc(C(=O)O)c4)c3O)c2=O)cc1C	rep nsp12 RdRp	binding, biolayer interferometry		concentration not given		BLI response	-0.01 nm
OC[C@H]1O[C@@H](n2cnc3c(N[C@@H]4CCOC4)ncnc32)[C@H](O)[C@@H]1O	SARS-CoV-2	viral RNA copies	Vero C1008, Omicron BA.1	48 h		EC50	2.93 ± 0.12 µM
SLVAVHAAQSTIEEQAKTFLDKFN	SARS-CoV-2 spike RBD	peptide spot array	peptide	concentration not given	baseline: wild-type ACE2 peptide	relative binding	3.34
NCC12CC3CC(CC1C3)C2	Matrix protein 2 (Influenza A virus, UniProt P0DOF5, S31N)			concentration not given, pH 5.5, cell-based		inhibition	0%
CCC(CC)[C@H](NC(C)=O)[C@@H]1[C@H](O)[C@@H](C(=O)O)C[C@H]1N=C(N)N	neuraminidase (Influenza B virus, UniProt C0LT34, I221V)					IC50	0.0055 ± 0.0012 µM
Cn1c[n+]([C@@H]2O[C@H](COP(=O)(O)OP(=O)([O-])OP(=O)(O)OC[C@H]3O[C@@H](n4cnc5c(=O)[nH]c(N)nc54)[C@H](O)[C@@H]3O)[C@@H](O)[C@H]2O)c2nc(N)[nH]c(=O)c21	rep nsp14	thermal shift		250 µM		ΔTm	1.1 °C
N=C(N)NCC12CC3CC(CC1C3)C2	Matrix protein 2 (Influenza A virus, UniProt P0DOF5, V27A)			concentration not given, pH 5.5, cell-based		inhibition	0%
C=C(C)C1(O)OC(=O)C=C1OC (stereo not drawn)	rep papain-like protease			concentration not given, C111S mutant	baseline: positive control	activity	22.1%

For quick reference, copied from above (other studies, line by line):
Molecule	target or system	test	test system	setting	scale	endpoint	value
SLVAVTAHQSTIEEQAKTFLDKFN	SARS-CoV-2 spike RBD	peptide spot array	peptide	concentration not given	baseline: wild-type ACE2 peptide	relative binding	3.73
Cn1c[n+]([C@@H]2O[C@H](COP(=O)(O)OP(=O)([O-])OP(=O)(O)OC[C@H]3O[C@@H](n4cnc5c(=O)[nH]c(N)nc54)[C@H](O)[C@@H]3O)[C@@H](O)[C@H]2O)c2nc(N)[nH]c(=O)c21	rep nsp14	thermal shift		250 µM		ΔTm	1.1 °C
COc1nc(N)nc2c1ncn2[C@@H]1O[C@H](CO)[C@@H](O)[C@@H]1O	SARS-CoV-2	infectious virus yield	Vero C1008, Omicron BA.1	48 h		EC50	1.67 ± 0.08 µM
